Assay results collected from several papers.
A part holds a random share of what one study measured.

Block 1
Target: Phosphate system positive regulatory protein PHO4, full length, GST-tagged (PHO4, Saccharomyces cerevisiae, UniProt P07270, residues 1-312)
Technique: competition protein-binding microarray
Form: double-stranded DNA, one strand shown
Matrix: in vitro
Tested at: 2 µM
Notes: whole 60-bp probe, lowest competitor level
Together with: Cbf1 competitor, 0.05 µM
Direction: higher = stronger binding
Target sequence (chain): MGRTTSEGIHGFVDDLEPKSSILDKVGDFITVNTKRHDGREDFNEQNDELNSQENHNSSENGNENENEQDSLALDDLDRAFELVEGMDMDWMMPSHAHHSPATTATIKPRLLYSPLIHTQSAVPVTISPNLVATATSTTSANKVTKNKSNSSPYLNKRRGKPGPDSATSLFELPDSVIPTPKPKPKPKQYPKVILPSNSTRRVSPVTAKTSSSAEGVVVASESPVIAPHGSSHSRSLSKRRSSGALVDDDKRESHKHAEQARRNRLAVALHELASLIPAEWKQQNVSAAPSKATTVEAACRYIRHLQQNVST
The fluorescence intensity of `CGTCCTAGTGATTGTCACATCACTTCCATGAGGAAGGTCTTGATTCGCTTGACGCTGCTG` is reported as 4820 a.u.
The fluorescence intensity of `TGCGCAACAACTTGTAGCGTGGGTGTATGTCTAGAAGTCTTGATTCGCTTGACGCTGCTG` is reported as 6600 a.u.
`CGTCCTAGTGATTGTGCTGTGGGTGCCATGAGGAAGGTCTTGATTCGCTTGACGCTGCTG` gave a fluorescence intensity of 8260 a.u.
`CATACCCAACCTTCGCACGTGTTTTAAGATATTTGTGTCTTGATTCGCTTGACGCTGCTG` gave a fluorescence intensity of 21900 a.u.
For `GCTGGCCTCGCCCGTCACAAAAGAAATGAGCTCACTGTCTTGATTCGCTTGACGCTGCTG`, the fluorescence intensity was 2600 a.u.
For `TGCATGGATATATTTGGCCCTGTATCAAGTTCAAACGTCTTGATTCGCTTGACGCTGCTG`, the fluorescence intensity was 3360 a.u.
For `AGAGAATCGGGCATATTCGTGCGGATTCCTTGTCCGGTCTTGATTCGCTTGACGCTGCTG`, the fluorescence intensity was 5860 a.u.
The fluorescence intensity of `GACAAGCATTTCGACCACGTTTTGTACAAGGAATCCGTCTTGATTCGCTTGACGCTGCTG` is reported as 14700 a.u.
`AAAGCGGTAATTTGTGAAGTGGGTGCAGATATCTATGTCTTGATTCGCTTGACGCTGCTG` has a fluorescence intensity of 4020 a.u.
The fluorescence intensity of `AAGCCAAAGAAACAGCATGTGGTTCAGCGGCCTTGCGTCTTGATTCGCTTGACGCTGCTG` is reported as 8550 a.u.
`TGCGCAACAACTTGGTGTGTGGGTGTATGTCTAGAAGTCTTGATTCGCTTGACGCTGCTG` gave a fluorescence intensity of 6050 a.u.
For `CATTATGGTAATTAGCACGTGGTCGATGGGGATTGTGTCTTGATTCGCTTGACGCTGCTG`, the fluorescence intensity was 18300 a.u.
For `CTTTCCCGATCTTGAGTAGTGGGTGTAGCACATTTGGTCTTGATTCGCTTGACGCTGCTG`, the fluorescence intensity was 5530 a.u.
`GACAACGACTTTGCAGACGTGCCGATTCCACCCATCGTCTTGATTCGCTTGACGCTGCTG` gave a fluorescence intensity of 5850 a.u.
The fluorescence intensity of `GTCCAGTGCTCATCGCACGTGCATCTGGATTTTGTGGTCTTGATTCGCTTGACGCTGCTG` is reported as 18700 a.u.
The fluorescence intensity of `CGTCCTAGTGATTTTCACGTGCTCTCCATGAGGAAGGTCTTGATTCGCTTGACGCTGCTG` is reported as 14400 a.u.
For `AAGTGCAGCCGATTGGGCGTGCGATTCACCCACTCAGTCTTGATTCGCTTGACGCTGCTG`, the fluorescence intensity was 5920 a.u.
`CGTTATATTTCCGACGTCGTGCGATAGTTTCTGCGCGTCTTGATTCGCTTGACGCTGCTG` has a fluorescence intensity of 9660 a.u.
For `CGTCCTAGTGATTGCAGTGTGGGTGCCATGAGGAAGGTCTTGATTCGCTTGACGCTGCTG`, the fluorescence intensity was 8210 a.u.

Block 2
Target: Interferon regulatory factor 7, full length, phosphomimetic (IRF7, Homo sapiens, UniProt Q92985, residues 1-503, S101K/S471D/S472D/S475D/S476D/S477D/S483D/S484D/S487D)
UniProt Q92985, sequence (whole entry, unmodified, looked up): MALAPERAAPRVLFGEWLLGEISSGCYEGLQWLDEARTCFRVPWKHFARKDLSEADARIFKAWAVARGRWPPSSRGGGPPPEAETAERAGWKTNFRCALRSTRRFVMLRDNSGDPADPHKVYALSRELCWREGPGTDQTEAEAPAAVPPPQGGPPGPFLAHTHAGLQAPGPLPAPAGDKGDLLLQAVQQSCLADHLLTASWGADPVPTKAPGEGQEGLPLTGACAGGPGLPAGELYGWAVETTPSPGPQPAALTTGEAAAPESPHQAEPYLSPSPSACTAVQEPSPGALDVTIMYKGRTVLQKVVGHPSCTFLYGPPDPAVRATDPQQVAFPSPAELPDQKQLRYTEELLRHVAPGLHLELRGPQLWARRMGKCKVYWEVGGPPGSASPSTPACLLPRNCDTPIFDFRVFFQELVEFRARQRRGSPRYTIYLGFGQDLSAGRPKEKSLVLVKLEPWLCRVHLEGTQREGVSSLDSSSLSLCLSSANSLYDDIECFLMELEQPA
Technique: protein-binding microarray
Form: double-stranded DNA, one strand shown
Matrix: in vitro
Tested at: 250 nM
Notes: 60-bp whole probe
Together with: salmon DNA 0.4 mg/ml
Reference: random background probes
Direction: higher = stronger binding
All sequences stand within: GCCTAGCAC … GTCTTGATTCGCTTGACGCTGCTG
`TTAGAACTGGGGTATCGGTTAGTGCTA` gave a log fluorescence of 0.29 z-score.
With `GACGCTATCGGGTATCGGGACGTGCTA` the log fluorescence was 0.0382 z-score.
For `GACGCTATCGGGTTTCGGGACGTGCTA`, the log fluorescence was 1.48 z-score.
`GTCGGTATCGGACTGGGGACGTGCTAG` has a log fluorescence of 0.15 z-score.
The log fluorescence of `GACGGTATCGGTTCCGGGACGTGCTAG` is reported as 2.83 z-score.
The log fluorescence of `TGGAGCCTAAGGTTTAGGCTCGTGCTA` is reported as -0.495 z-score.
The log fluorescence of `GACGGATTCGACTATCGGGACGTGCTA` is reported as 0.554 z-score.
`GACGATTTCGGCACTGGAGACGTGCTA` has a log fluorescence of -0.02 z-score.
The log fluorescence of `TTAGAACTGAGTCTCGCTTAGTGCTAG` is reported as 0.601 z-score.
`TCATTTATGTACTCTCTAACTGTGCTA` gave a log fluorescence of 1.56 z-score.
`GGCGGTTTCGGTTTCGGGACGTGCTAG` has a log fluorescence of 14.1 z-score.
`TGAGCATACCATATCAGAAAGTGCTAG` has a log fluorescence of -0.362 z-score.
For `TTAGGTTTCGGTACCGGTTAGTGCTAG`, the log fluorescence was 6.08 z-score.
With `GACGGTTGCGGGTTTCGGGACGTGCTA` the log fluorescence was 2.22 z-score.
For `TCAAATCTCAGCCTCCGACTGTGCTAG`, the log fluorescence was -0.228 z-score.
`TTAGGACTGGGTTGCGGTTAGTGCTAG` gave a log fluorescence of 0.527 z-score.
For `GAAGATCTCAGTTTCGAGACGTGCTAG`, the log fluorescence was 4.23 z-score.
With `AATGCCCTCGGTTTACAGGGGTGCTAG` the log fluorescence was 0.958 z-score.
For `TCACCTAACATGCTTCGAACTGTGCTA`, the log fluorescence was -0.293 z-score.

Block 3
Target: Histone acetyltransferase KAT6A, both winged helices, GST fusion (KAT6A, Homo sapiens, UniProt Q92794, residues 1-181)
Technique: protein binding microarray
Form: double-stranded DNA, one strand shown
Matrix: in vitro
Tested at: not given
Notes: 8-mer, flanks averaged, mean of 2 arrays, mostly near background
Reference: not given
Direction: higher = stronger binding
Target sequence (chain): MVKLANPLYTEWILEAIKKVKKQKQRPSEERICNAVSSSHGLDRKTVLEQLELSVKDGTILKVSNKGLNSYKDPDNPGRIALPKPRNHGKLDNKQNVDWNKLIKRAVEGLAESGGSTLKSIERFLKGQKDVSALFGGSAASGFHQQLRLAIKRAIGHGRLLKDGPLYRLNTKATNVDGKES
The E-score of `CCGAGTCA` is reported as -0.0523.
With `TAAGCAAA` the E-score was -0.0911.
With `AGCATGGA` the E-score was -0.218.
For `GGCGGCCA`, the E-score was 0.128.
For `CGACGGAC`, the E-score was 0.277.
With `TACCTGGA` the E-score was -0.0672.
`GTGTGGGA` gave an E-score of -0.0858.
With `CCCGACAA` the E-score was 0.116.
With `ACGAAGAA` the E-score was -0.0577.
The E-score of `GGGCACCA` is reported as -0.0887.
The E-score of `ACATGAAA` is reported as -0.0335.
`CGGCAAGA` gave an E-score of 0.216.
With `AGTTCCTC` the E-score was -0.0216.
The E-score of `CCTGTGGC` is reported as -0.176.
`TCTTGTCA` has an E-score of -0.00819.
For `AACGCCGG`, the E-score was 0.245.
The E-score of `ATAGAACC` is reported as -0.0825.
For `GCAGTCAA`, the E-score was -0.0742.
With `GTCGATGA` the E-score was 0.0249.
`CTGCGCGA` has an E-score of 0.258.
The E-score of `TCCTCCAA` is reported as -0.267.
`ACGCAGTG` has an E-score of 0.205.
The E-score of `TACATATA` is reported as -0.0442.
`ACCACTTC` has an E-score of -0.209.

Block 4
Target: RING finger protein unkempt homolog, zinc fingers 1-6, GST-SBP tag (UNK, Homo sapiens, UniProt Q9C0B0, residues 30-357)
UniProt Q9C0B0, sequence (30-357, looked up): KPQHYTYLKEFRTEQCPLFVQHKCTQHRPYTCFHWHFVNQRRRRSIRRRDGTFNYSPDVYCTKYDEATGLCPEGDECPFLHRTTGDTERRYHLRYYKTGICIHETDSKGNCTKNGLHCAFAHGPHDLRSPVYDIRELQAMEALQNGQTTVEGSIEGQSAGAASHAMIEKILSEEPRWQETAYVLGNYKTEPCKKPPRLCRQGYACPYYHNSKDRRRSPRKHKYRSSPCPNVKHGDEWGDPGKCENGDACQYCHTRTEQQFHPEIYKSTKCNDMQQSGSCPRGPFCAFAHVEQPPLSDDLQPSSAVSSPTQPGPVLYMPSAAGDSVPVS
Technique: RNA Bind-n-Seq
Form: RNA
Matrix: in vitro
Tested at: not given
Notes: RNA with constant flanks, human and mouse sites, ends assumed
Reference: input RNA pool
Direction: higher = stronger binding
For `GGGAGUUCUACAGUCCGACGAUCGCUCAUGCCUACCACAGCCGCUGCGUGGACCCCUGGCUCACUCAGACCCGGAAGACCUGCCCCAUUUGCAAGCAGCCUGUUCAUCGGGGUCCUGGGGACGAAGACCAAGAGGAAGAAACUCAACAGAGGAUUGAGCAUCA`, the bound/input enrichment was 0.118 ratio.
The bound/input enrichment of `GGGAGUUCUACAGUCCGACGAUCAUCCCUCAGGAAUUGAACAACAUUACCAAGCUCAAUGAACACUUCAGCAAAUUUGGAACUAUUGUUAAUAUCCAGGUUGCUUUUAAGGGUGACCCAGAAGCAGCCCUAAUCCAAUAUCUUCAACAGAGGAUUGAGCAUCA` is reported as 0.104 ratio.
With `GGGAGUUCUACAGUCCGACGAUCUUCCUGCAUUGCUGAGUCUUUGAAGUUCUACCACAAAGGGAUCGCCUCCCUAACGGCCGCCAGCACACCGCUGAAUCCUUUGAGCUUUCAGUGUGAGUUUGUAAAGCUCCGGAUCGAUCUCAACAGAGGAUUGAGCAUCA` the bound/input enrichment was 0.128 ratio.
With `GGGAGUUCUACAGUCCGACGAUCAACGUUCUGGAUGCCAACCUCUGCUUAAAGGGAGAAGACUUGGAUUCUCAGGUCGGGGUGAUUGACUUCUCUCUCUGUCUGAAGGACGCACAGGAUCUUGACAGCGGCAGAGAGCAUGAACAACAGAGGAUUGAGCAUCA` the bound/input enrichment was 0.286 ratio.
The bound/input enrichment of `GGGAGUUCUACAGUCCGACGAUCUUAUCUAAUUAGAAUGAAAAUGAAAGGAGCAAAGAAGGCAUUACUGUAUAUAAUGGAUAUACACUGGUGGUUCUAGAAUUAUGGUAUAUGGUACAUGGUUGAAGUGCCAUUGUUUCAGUUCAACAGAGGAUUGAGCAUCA` is reported as 2.23 ratio.
With `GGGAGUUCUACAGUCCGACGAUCCAGUCACCGCUUUCUUCUCUAAAACAACUUCUUUUUUUUUUUUAACACAUCUUUUCCAUGUAGCAACCAAAGCCAGAGCCAUGUUCUAACCCUAUGCCCUUCUCAAGCCUGGCUGCUCACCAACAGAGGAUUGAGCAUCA` the bound/input enrichment was 2.2 ratio.
With `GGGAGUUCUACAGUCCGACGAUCUAGCCCAAUUCUGCCCCUCCAUCCCAAGGGGCAGAGAAAUUGUCUUUCUUUGCUGACUCCUACGAGGAAAAAAAAAAAAAAAAAAAAAACAAUUAAAGGGAAAGAUAAACGGAGACGGAGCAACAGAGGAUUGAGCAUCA` the bound/input enrichment was 0.877 ratio.
`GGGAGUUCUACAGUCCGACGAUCGAGGAAUUUGGUGUUGUCUCAAAUACAAGAUUGAUUGCUGCUACUACUUCUGUAUUAAAAACUAGAUUUUCAUAUGCUUUUCCAAAGGAAUUUCCUUACAGGAUGAAUCAUAUACUAGAACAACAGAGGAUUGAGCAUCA` gave a bound/input enrichment of 0.588 ratio.

A few entries again (block 3):
With `AGTTCCTC` the E-score was -0.0216.
`ACCACTTC` has an E-score of -0.209.
With `GTCGATGA` the E-score was 0.0249.
The E-score of `TCCTCCAA` is reported as -0.267.
